Experimental data from different studies.
Lines come from different studies, so protocols differ.

Structure (SMILES) | test | test system | setting | scale | quantity | value
C#CCN(CCCNC(=O)CCCCC[N+]1=C(/C=C/C2=C(Cl)C(=C/C=C3\N(CCCCCC(=O)[O-])c4ccccc4C3(C)C)/CCC2)C(C)(C)c2ccccc21)CCCOc1ccc(Cl)cc1Cl | – | mouse plasma | 4 °C | – | stability time | ≥ 4 h
COC(=O)/C=C/C(=O)c1ccc(OC)cc1 | – | rat plasma | three freeze-thaw cycles | – | stability | stable
Oc1ccc2ccccc2c1/N=N/c1ccccc1 | – | rat whole blood | 5.0 µg/L, 30 days, -20 °C, long-term storage | – | stability deviation | 2.3%
CC[C@H](C)[C@H](NC(=O)[C@H](N)Cc1ccc(O)cc1)C(=O)N[C@H]1CSSC[C@@H](C(=O)N(C)[C@H](C(N)=O)[C@@H](C)CC)NC(=O)[C@H](CCCNC(=N)N)NC(=O)[C@H](Cc2c[nH]cn2)NC(=O)[C@H](C)NC(=O)CN(C)C(=O)[C@H](Cc2c[nH]c3ccccc23)NC(=O)[C@H](CC(=O)O)NC(=O)[C@H](CCC(N)=O)NC(=O)[C@H](Cc2cn(C)c3ccccc23)NC(=O)[C@H](C(C)C)NC1=O | – | cynomolgus monkey plasma, SPE extract | room temperature and 4 °C | – | stability time | ≥ 48 h
Cc1ccccc1/N=N/c1ccc(/N=N/c2c(O)ccc3ccccc23)c(C)c1 | – | rat whole blood | 5.0 µg/L, 30 days, -20 °C, long-term storage | – | stability deviation | 3.9%
CC/C=C\C/C=C\C/C=C\C/C=C\C/C=C\C/C=C\CCC(=O)Nc1ccn(C2OC(CO)C(O)C2(F)F)c(=O)n1 (stereo not drawn) | – | octanol | – | – | stability time | ≥ 18 h
[2H]C([2H])([2H])n1c(C(C)(C)NC(=O)c2nnc(C)o2)nc(C(=O)NCc2ccc(F)cc2)c(O)c1=O | – | methanol | 1000 µg/mL, 25 °C | stable up to | stability in stock solution | ≤ 8 h
CCCC[P+](CCCC)(CCCC)CCCC.Cc1ccc(S(=O)(=O)[N-]C(=O)NN2CC3CCCC3C2)cc1 (stereo not drawn) | HPLC | simulated gastric fluid | pH 1, 37 °C | – | stability time | 6 h
CO[C@@H](C[C@H]1C(C)=CC[C@@H]2[C@]3(C)C[C@H](O[C@@H]4O[C@@H](C)[C@H](O)[C@@H](O)[C@H]4O)[C@@H](O)C(C)(C)[C@H]3CC[C@]21C)[C@H](N)C(=O)O | – | simulated gastric fluid with pepsin | 1 µM, pH 1.2, 37 °C | – | stability time | > 4 h
O=c1c(O)c(-c2ccc(O)c(O)c2)oc2cc(O[C@@H]3O[C@H](CO)[C@@H](O)[C@H](O)[C@H]3O)cc(O)c12 | – | processed plasma samples | 15 °C, autosampler | – | stability time | ≥ 24 h
Cc1ccc(/N=N/c2c(O)ccc3ccccc23)c(C)c1 | – | rat whole blood extract | 0.5 µg/L, 30 days, -20 °C, long-term storage | – | stability deviation | -1.6%
C#Cc1cccc(N(C(=O)CCl)C(C(=O)NC2CCCCC2)c2ccccn2)c1 (racemic) | HPLC-MS | DPBS | 24 h, 37 °C | – | stability | unstable

A few entries again:
Structure (SMILES) | test | test system | setting | scale | quantity | value
O=c1c(O)c(-c2ccc(O)c(O)c2)oc2cc(O[C@@H]3O[C@H](CO)[C@@H](O)[C@H](O)[C@H]3O)cc(O)c12 | – | processed plasma samples | 15 °C, autosampler | – | stability time | ≥ 24 h
